Results of several laboratories.
Target: NAD-dependent protein deacetylase sirtuin-3, mitochondrial (SIRT3, Homo sapiens, UniProt Q9NTG7)
One construct used (Q9NTG7 1-399): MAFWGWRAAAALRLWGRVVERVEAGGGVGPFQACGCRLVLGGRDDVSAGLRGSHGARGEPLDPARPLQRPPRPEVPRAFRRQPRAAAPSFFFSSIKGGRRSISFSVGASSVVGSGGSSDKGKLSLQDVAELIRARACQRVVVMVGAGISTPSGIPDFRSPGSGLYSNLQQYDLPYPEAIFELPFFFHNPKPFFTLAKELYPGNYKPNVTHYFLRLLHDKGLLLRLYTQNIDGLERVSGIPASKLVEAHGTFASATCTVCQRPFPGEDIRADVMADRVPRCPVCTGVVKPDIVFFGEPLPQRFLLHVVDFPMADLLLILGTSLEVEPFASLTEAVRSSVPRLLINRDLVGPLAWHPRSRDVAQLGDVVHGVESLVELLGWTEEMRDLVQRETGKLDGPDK

With `Cc1cc(C)nc(SCC(=O)Nc2ncc(Cc3cccc(OCc4cn(-c5ccc(Cl)cc5)nn4)c3)s2)n1` the IC50 was over 100 µM (enzyme activity, inhibitor, fluorescence).
`CCCCCCCCCCCCCC(=S)NCCCC[C@H](NS(C)(=O)=O)C(=O)N[C@@H](C)C(=O)N[C@@H](CCCNC(=N)N)C(N)=O` has an IC50 of 2 µM (enzyme activity, inhibitor).
For `CCCCCCCCCCCCCC(=S)NCCCC[C@H](NC(=O)[C@H](CCCNC(=N)N)NC(=O)[C@H](C)N)C(=O)N[C@@H](CO)C(=O)N[C@H](C(=O)O)[C@@H](C)O`, the IC50 was 5.6 µM.
For `Cc1cc(C)nc(SCC(=O)Nc2ncc(Cc3cccc4ccccc34)s2)n1`, the IC50 was over 100 µM (enzyme activity, inhibitor, fluorescence).
For `COC(=O)[C@H](C)NC(=O)[C@H](C)NC(=O)[C@H](CCCCNC(C)=S)NC(=O)c1ccc(C(=O)c2ccc(OC/C=C/Cn3cc(COCCOCCOc4cccc5c4C(=O)N(C4CCC(=O)NC4=O)C5=O)nn3)cc2)cc1` (stereo partly drawn), the IC50 was 38.2 µM (enzyme activity, inhibitor, HPLC).
For `CCCCCCCCCCCCNC(=S)NCCCC[C@H](NS(C)(=O)=O)C(=O)N[C@H](C)C(=O)N[C@@H](CCCNC(=N)N)C(N)=O`, the IC50 was 35 µM (enzyme activity, inhibitor).
With `O=C(NO)c1ccc(Cn2sc3ccccc3c2=O)cc1` the IC50 was over 10 µM (enzyme activity, inhibitor).
The IC50 of `C#CC[C@H](NC(=O)[C@H](Cc1ccccc1)NC(=O)[C@H](CCSC)NC(=O)[C@H](CC(C)C)NC(=O)[C@H](CCCCNC(C)=S)NC(=O)[C@H](CCCCN)NC(=O)[C@H](Cc1c[nH]cn1)NC(=O)[C@H](CCCNC(=N)N)NC(=O)CCC1(C)N=N1)C(N)=O` is reported as 4.6 µM (enzyme activity, inhibitor; pH 7.5).
The IC50 of `CC(=S)NCCCC[C@H](NC(=O)[C@H](CCCNC(=N)N)NC(=O)[C@H](C)NC(=O)[C@@H](NC(=O)[C@H](CCC(N)=O)NC(=O)[C@@H](N)CCCCN)[C@@H](C)O)C(=O)N[C@@H](CO)C(=O)N[C@H](C(=O)NCC(=O)NCC(=O)N[C@@H](CCCCN)C(=O)N[C@@H](C)C(=O)O)[C@@H](C)O` is reported as 1 to 2 µM (enzyme activity, inhibitor, HPLC).
`COCCn1cc(COc2cccc(Cc3cnc(NC(=O)CSc4nc(C)cc(C)n4)s3)c2)nn1` gave an IC50 of over 100 µM (enzyme activity, inhibitor, fluorescence).
For `CCCCCCCCCCCCCC(=S)NCCCC[C@H](NC(=O)CNC(=O)CN)C(=O)NCC(=O)O`, the IC50 was over 50 µM.
For `CC[C@H](C)[C@H](NC(=O)[C@@H](NC(=O)[C@H](CCCCN)NC(=O)[C@H](CCCNC(=N)N)NC(=O)[C@H](CC(C)C)NC(=O)[C@H](CC(C)C)NC(=O)[C@H](CCCNC(=N)N)NC(=O)[C@H](CCCNC(=N)N)NC(=O)[C@H](CCSC)NC(=O)[C@@H](NC(=O)[C@H](CCCCNC(C)=S)NC(=O)CNC(=O)[C@H](CO)NC(=O)[C@H](CCCNC(=N)N)NC(=O)[C@@H](NC(=O)[C@H](CCCCN)NC(=O)[C@@H]1CCCN1C(=O)[C@H](CC(C)C)NC(=O)[C@H](CCCNC(=N)N)NC(=O)[C@@H](N)CCCCN)[C@@H](C)O)C(C)C)[C@@H](C)CC)C(=O)O`, the IC50 was about 5 µM (enzyme activity, inhibitor, HPLC).

Some of these lines once more:
For `CCCCCCCCCCCCCC(=S)NCCCC[C@H](NC(=O)[C@H](CCCNC(=N)N)NC(=O)[C@H](C)N)C(=O)N[C@@H](CO)C(=O)N[C@H](C(=O)O)[C@@H](C)O`, the IC50 was 5.6 µM.
For `Cc1cc(C)nc(SCC(=O)Nc2ncc(Cc3cccc4ccccc34)s2)n1`, the IC50 was over 100 µM (enzyme activity, inhibitor, fluorescence).
